Measured values gathered from unrelated publications.
Several values in a cell are separate wells, animals, samples, runs or records. ± marks the error that the study gave.
B1: FABP4; sequence looked up; chain CDAFVGTWKLVSSENFDDYMKEVGVGFATRKVAGMAKPNMIISVNGDLVTIRSESTFKNTEISFKLGVEFDEITADDRKVKSIITLDGGALVQVQKWDGKSTTIKRKRDGDKLVVECVMKGVTSTRVYERA
B2: IκBα YD/SS; sequence looked up; chain MFQAAERPQEWAMEGPRDGLKKERLLDDRHDSGLDSMKDEEYEQMVKELQEIRLEPQEVPRGSEPWKQQLTEDGDSFLHLAIIHEEKALTMEVIRQVKGDLAFLNFQNNLQQTPLHLAVITNQPEIAEALLGAGCDPELRDFRGNTPLHLACEQGCLASVGVLTQSCTTPHLHSILKATNYNGHTCLHLASIHGYLGIVELLVSLGADVNAQEPCNGRTALHLAVDLQNPDLVSLLLKCGADVNRVTYQGYSPYQLTWGRPSTRIQQQLGQLTLENLQMLPESEDEESYDTESEFTEFTEDELPSSDCVFGGQRLTL
B3: IκBα C308F; sequence looked up; chain MFQAAERPQEWAMEGPRDGLKKERLLDDRHDSGLDSMKDEEYEQMVKELQEIRLEPQEVPRGSEPWKQQLTEDGDSFLHLAIIHEEKALTMEVIRQVKGDLAFLNFQNNLQQTPLHLAVITNQPEIAEALLGAGCDPELRDFRGNTPLHLACEQGCLASVGVLTQSCTTPHLHSILKATNYNGHTCLHLASIHGYLGIVELLVSLGADVNAQEPCNGRTALHLAVDLQNPDLVSLLLKCGADVNRVTYQGYSPYQLTWGRPSTRIQQQLGQLTLENLQMLPESEDEESYDTESEFTEFTEDELPYDDFVFGGQRLTL

With `Cdk2 Inhibitor III` the inhibition was 0% (HeLa expressing Ub(G76V)-GFP; Ub(G76V)-GFP degradation, inhibitor, cycloheximide chase; 12 µM).
The reporter activation of `ALLCWVTQV` is reported as 0.15% (Jurkat T cells expressing 1G4 TCR; NFAT-eGFP reporter, flow cytometry; peptide; concentration not given, HLA-A*02:01 NY-ESO system).
The binding intensity of `EKPIDSETKM` is reported as -0.214 (human MAGI1-2/6 PDZ construct (MBP fusion); automated holdup; peptide, crude extract; concentration not given, corrected by standard peak, unit not given; reference: biotin control resin, higher = stronger binding).
With `GLLQWVTQV` the reporter activation was 76.6% (Jurkat T cells expressing 1G4 TCR; NFAT-eGFP reporter, flow cytometry; peptide; concentration not given, HLA-A*02:01 NY-ESO system).
The Cdk5-p25 binding of `AFRSPCARIGYV` is reported as 1.23 and 0.91 and 1.04 and 1.01 and 1.08 and 0.723 (HEK-293T cells; co-immunoprecipitation; peptide; concentration not given, unit not given; reference: Cdk5 level).
With `B1 (FABP4)` the osteoclast number was 192 and 202 and 172 and 205 (mouse bone marrow macrophages; TRAP staining; 25 ng/mL, 4 days, with: M-CSF and RANKL).
`lawsone` has a selectivity index of 1.24 (HepG2; MTT; reference: MRC5 IC50 over HepG2 IC50).
`bis(2,4-dimethylpyridine)dichloroplatinum(II)` gave an IC50 of 9.3 µM (BEAS-2B; cell viability, MTT; 48 h).
`CCT4` gave a co-IP enrichment of 3.28 (co-immunoprecipitation; human RBC membrane; DMTMM crosslinker, unit not given, with: Band 3 peptide 1-56 bait; reference: negative control).
The selectivity ratio of `MTVCNASQRQAHAQATAVSL` is reported as 2.8 ± 1.9 (H1355 lung adenocarcinoma; phage binding output/input; peptide; reference: control phage).
The reporter activation of `YLGEWVAQL` is reported as 0.00283% (Jurkat T cells expressing 1G4 TCR; NFAT-eGFP reporter, fluorescence microscopy; peptide; concentration not given, HLA-A*02:01 NY-ESO system).
For `Ac-LRKLRKRLLRDWLKAFYDKVAEKLKEAF-NH2 (N-acetyl, C-amide)`, “apoA-I as preβ-HDL” read 99% (HepG2; peptide; 20 µg/mL, 20 h).
`adenosylhomocysteinase` has a co-IP enrichment of 0 (co-immunoprecipitation; human RBC cytosol; unit not given, with: Band 3 peptide 1-56 bait; reference: negative control).
With `RLGQWIAQA` the reporter activation was 0.0552% (Jurkat T cells expressing 1G4 TCR; NFAT-eGFP reporter, fluorescence microscopy; peptide; concentration not given, HLA-A*02:01 NY-ESO system).
For `B2 (IκBα YD/SS)`, “IκBα protein level” read 100% (IκBα/IκBβ/IκBε knockout MEF, retro-transduced IκBα; Western blot; concentration not given, 0 (unit not given), with: TNFα 20 ng/mL; reference: time zero).
The EC50 of `epoetin alfa` is reported as 0.09 nM (UT7/EPO; phosphorylation, agonist, measured: phospho-AKT; 10 min).
`ALFQWISQV` has a reporter activation of 21.1% (Jurkat T cells expressing 1G4 TCR; NFAT-eGFP reporter, fluorescence microscopy; peptide; concentration not given, HLA-A*02:01 NY-ESO system).
`KMTMR` — result for “active β-catenin level”: 1.3 (THP-1; Western blot; peptide; 0.5 µM, 3 days, unit not given, with: WNT3A; reference: WNT3A alone).
With `nivolumab` the specific killing was 152% and 90.3% and 101% (CMV-specific PBMC; concentration not given, with: NLVPMVATV-pulsed T2 cells; reference: control without ATP).
`bovine insulin` — result for “cell doubling time”: ~48 h (ATDC5; 10 µg/mL, days 6 to 10).
`B3 (IκBα C308F)` — result for “IκBα protein level”: 100% (IκBα/IκBβ/IκBε knockout MEF, retro-transduced IκBα; Western blot; concentration not given, 0 (unit not given), with: TNFα 20 ng/mL; reference: time zero).
`ALLANHEELFQT` — result for fluorescence signal: “decreased” (CCA-156; multimer binding; peptide; 150 µM, 30 min, 4 °C, unlabelled competitor, with: 5 µM Cy5.5-labelled multimer).
With `Peginesatide` the phosphorylation level was 5.9 fold (UT7/EPO; tyrosine phosphorylation, LC-MS/MS phosphoproteomics, GluC, measured: SPTB tyrosine 15; 10 nM, 15 min, with: 10 U/mL EPO; reference: vehicle).
`chidamide` has an EC50 of 2020 nM (HEK-293T ATF4-FLuc reporter; reporter gene, activator, qHTS).
The reporter activation of `SLLQWVSMV` is reported as 0.24% (Jurkat T cells expressing 1G4 TCR; NFAT-eGFP reporter, flow cytometry; peptide; concentration not given, HLA-A*02:01 NY-ESO system).
`GSGAGSETKM` gave a binding intensity of -0.00349 (human MAGI1-2/6 PDZ construct (MBP fusion); automated holdup; peptide, crude extract; concentration not given, uncorrected, unit not given; reference: biotin control resin, higher = stronger binding).
With `SLLQWVSQV` the reporter activation was 73.8% (Jurkat T cells expressing 1G4 TCR; NFAT-eGFP reporter, flow cytometry; peptide; concentration not given, HLA-A*02:01 NY-ESO system).
`maraviroc` has a mRNA level of 21 fold (HBMEC; gene expression, qPCR; 2.5 µM, 24 h, with: HIV infection; reference: HIV-infected cells, increase).
`GLAQWLGHV` gave a reporter activation of 0.00539% (Jurkat T cells expressing 1G4 TCR; NFAT-eGFP reporter, fluorescence microscopy; peptide; concentration not given, HLA-A*02:01 NY-ESO system).
With `monensin sodium` the Z score was 0.729 (MCF-10A; cell viability, CellTiter-Glo; direction not given).

For quick reference, copied from above:
With `Peginesatide` the phosphorylation level was 5.9 fold (UT7/EPO; tyrosine phosphorylation, LC-MS/MS phosphoproteomics, GluC, measured: SPTB tyrosine 15; 10 nM, 15 min, with: 10 U/mL EPO; reference: vehicle).
`chidamide` has an EC50 of 2020 nM (HEK-293T ATF4-FLuc reporter; reporter gene, activator, qHTS).
The reporter activation of `SLLQWVSMV` is reported as 0.24% (Jurkat T cells expressing 1G4 TCR; NFAT-eGFP reporter, flow cytometry; peptide; concentration not given, HLA-A*02:01 NY-ESO system).
